Assay results collected from several papers.
Numbered parts are unrelated; each lists some results of a single study.

Set 1
Target: Sal-like protein 4, full length isoform B (SALL4, Homo sapiens, UniProt Q9UJQ4-2, residues 1-616)
Technique: universal PBM
Form: double-stranded DNA, one strand shown
Matrix: in vitro
Tested at: not given
Setting: 8-mer, flanks averaged, mean of replicates
Reading: higher = stronger binding
Sequence	E-score
GTAAGTCA	0.0557
CGGCGCTC	-0.302
AGCTGTAG	-0.012
CAATTTAA	0.318
ATGCGAGC	-0.163
GATACTGC	0.059
ATACCGAA	0.224
ATTTGAGA	0.186
CGCCCTCC	-0.275
ACCCCATA	-0.129
AAAACGAG	0.0278
TCAAAGCA	0.0963
AGGCATGG	-0.168
GACTAGAC	-0.00891
CTTCGAAG	-0.0274
AGCCTACA	0.0418
GCTTCGCC	-0.196
CATGGTAA	0.187
TCATAGAA	0.219
CACGTTAA	0.15
AGCTCGAA	-0.189
CGCAAACA	0.0767
CTATACTC	0.0484

Set 2
Target: RING finger protein unkempt homolog, zinc fingers 1-6, GST-SBP tag (UNK, Homo sapiens, UniProt Q9C0B0, residues 30-357)
Technique: RNA Bind-n-Seq
Form: RNA
Matrix: in vitro
Tested at: not given
Setting: RNA with constant flanks, human and mouse sites, ends assumed
Reference: input RNA pool
Reading: higher = stronger binding
Shared flanks, not repeated: GGGAGUUCUACAGUCCGACGAUC … CAACAGAGGAUUGAGCAUCA
Construct (chain): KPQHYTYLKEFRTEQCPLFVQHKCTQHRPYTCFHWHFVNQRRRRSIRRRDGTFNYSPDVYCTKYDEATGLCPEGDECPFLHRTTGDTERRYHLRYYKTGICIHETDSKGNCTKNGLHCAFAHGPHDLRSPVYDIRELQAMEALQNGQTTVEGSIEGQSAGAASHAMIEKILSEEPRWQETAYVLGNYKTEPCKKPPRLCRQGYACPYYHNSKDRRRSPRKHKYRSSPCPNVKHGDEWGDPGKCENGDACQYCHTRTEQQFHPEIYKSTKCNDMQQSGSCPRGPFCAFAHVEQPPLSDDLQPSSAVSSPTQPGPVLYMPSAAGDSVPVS
Sequence	bound/input enrichment
GAUCUGUACCACAAAGGGCUACUCAAGUUCUCUCUGGAUGCCCUUUCUCUGAGGGACACUCUGGUCAUGUUGGUUGUUGAUAUGUCAAAGCCUUGGACUGCUUUGGAUUCCUUACAGAAA	0.0571 ratio
UGUACAAACCCCAUAACGCCCCUCUGCACACAGCCCGACCAAGUUAUUAAAGGGGGCGCUAGUAUUAUUCAGUGCCACAUCCUAAAUGACAAGCGACACAUAUUAACCAAAGAUACGAAU	1.13 ratio
AUGGAGCCCAGAGCUCCGUGCCUGAUGGGUGAGCACUCAACAACUGAGGCACAUCCCUAGCCACUCCUGAGUGCUGUCCCUCUGCCAGGCUGAGAGCUGGGAGGUGGCGCCUAAGGGGAU	0.0555 ratio
GGUGGAGAUGGAGAUGAUAUGGAAAUGUUCAUGGAGGAGAUGAGAGAGAUCCGGAGAAAGCUUAGGGAGCUACAGCUGAGAAAUUGUCUACGCAUCCUUAUGGGGGAGCUGUCUAACCAC	0.326 ratio
GCUCUUGGGAAUGUAAUCAGCGCCUUGGGGGACAAGAGCAAGAGAGCCACCCAUGUCCCUUACAGAGACUCUAAGCUGACAAGACUCUUGCAGGAUUCCCUUGGGGGUAACAGCCAAACC	0.12 ratio
GAGCCACCAUACAGAGUACCUAGGGAUGAUUGGGAAGAAAAAAGGCACUUUAGAAGAGAUAGUUUUGAUGAUCGUGGUCCUAGUCUCAACCCAGUGCUUGAUUAUGACCAUGGAAGUCGU	1.91 ratio
CAUAAUUUGAAGGACCGCUACUAUUCAGGACUUAUCUAUACUUACUCUGGACUCUUCUGUGUGGUGAUAAAUCCUUACAAGAACCUUCCAAUUUACUCUGAGAAUAUUAUUGAAAUGUAU	0.352 ratio
GGGACCGUCAAAAGCGACAAAGCAAAAACAAAGCCACCGCUUCAAGUAACAAAGGUAGACAAUAAUUUGACAGUAGAGAAAGCCACCAAGAAAACAGUUGUUGGGAAGGAGAGUAAACCU	0.961 ratio
GGAGAUAUUCCAGAUCUUUCACAGGCCCCCAGCAGUCUUCUUGAUGCUUUAGAACAACAUUUAGCUUCCUUGGAAGGAAAGAAAAUCAAAGAUUCCACAGCUGCAAGCAGGGCUACAACA	0.268 ratio
AACCAAGAACAUGAAACAGAGGACUGUGCUGAAUCUCUAAAUCAUGCUGAUAGUGAUGUACCACCUUCUAAUACCAUGAGUCCCUUUAACACCUCUGAUUACCGCUUUGAGUGUAUAUGU	0.118 ratio
GAUUACAAGGGGCAGAAACUAGCUGAACAGAUGUUUCAGGGGAUCAUUCUUUUUUCUGCAAUAGUUGGGUUUAUCUACGGGUACGUGGCUGAACAGUUUGGGUGGACUGUCUACAUAGUU	0.575 ratio

Set 3
Target: Prothrombin, mature alpha-thrombin (F2, Homo sapiens, UniProt P00734)
Technique: aptamer microarray, sandwich
Form: DNA with 2'F-ANA
Matrix: in vitro
Tested at: 200 nM
Setting: whole 15-mer aptamer, many near background
Added: Cy3 exosite-II aptamer, 400 nM
Reading: higher = stronger binding
Sequence: GGTTGGTGTGGTTGG
Modification	mean fluorescence intensity [a.u.]
2'F-ANA at 1 4 5 7 8 11 14 15	46.5
2'F-ANA at 2 3 5 6 7 13 14	144
2'F-ANA at 1 4 6 8 10 11 12	78.8
2'F-ANA at 4 9 10 11 12 14	63.9
2'F-ANA at 1 6 9 11 12 15	203
2'F-ANA at 1 2 6 9 12 13 15	218
2'F-ANA at 2 4 11 12 13	379
2'F-ANA at 1 8 10 11 12 13 14	156
2'F-ANA at 1 9 10 12 15	74.3
2'F-ANA at 1 9 10 12 13 14	46.5
2'F-ANA at 2 4 7 8 9 10 12 15	140
2'F-ANA at 3 4 5 7 9 10 11 12 13	60.7
2'F-ANA at 1 3 4 5 6 7 8 9 14	43.8
2'F-ANA at 3 4 5 6 8 9 10 11 12	69.3
2'F-ANA at 3 4 5 6 7 8 11 12	200
2'F-ANA at 2 3 4 6 8 12 13 14	280
2'F-ANA at 7 8	780
2'F-ANA at 2 3 4 7 8 11 12 14 15	436
2'F-ANA at 3 7 8 10 11 13 15	442
2'F-ANA at 1 4 5 14 15	43.1
2'F-ANA at 1 2 3 4 5 7 10 12 14 15	58.4
2'F-ANA at 1 3 6 7 8 10 12 14	64.3
2'F-ANA at 2 3 4 5 7 9 10 11	53.3

Set 4
Target: RNA binding protein fox-1 homolog 2, RRM domain, GST-SBP tag (RBFOX2, Homo sapiens, UniProt O43251-10, residues 100-194)
Technique: RNA Bind-n-Seq
Form: RNA
Matrix: in vitro
Tested at: 365 nM
Setting: natural RNA segment, single round, ends assumed
Reference: no-protein control
Reading: higher = stronger binding
Shared flanks, not repeated: GGGAGUUCUACAGUCCGACGAUC … UGGAAUUCUCGGGUGCCAA
Target sequence (chain): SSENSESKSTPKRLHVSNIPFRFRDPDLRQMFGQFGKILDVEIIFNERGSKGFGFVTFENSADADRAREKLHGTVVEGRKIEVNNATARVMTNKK
Sequence	RBNS enrichment (R)
AGAGCUUAGAGGAAAAAGGUCAGCUCUCUUCCUGUUAUACAUGGUUAUACAUGGUUGGGGUUUAAAAGCACAAAGAGAAACCUCCCCCUCCUGGCUUUCGUGGCCAUCUU	0.257
CUGAAAGCUGUGGACACCAAUGGCCAGGAUUCCUUCUCCCCUGGUUUUUGAGGAUCCCUGGGUCUUCUGAGACUGGCCAGGAGAGGGAUGGUGGGGCCAGUGGUUGUGUG	0.216
CAUUGUACAAAGUUCAAGGCUAAGAGUUCUGAAUUCUGGCGUCAGCUUCCUCAGGAUUUUCUUCAGUUGCAAGUACCUUUCCACUGAAAAUAUGAGCAUGCCCGCCUGGC	0.97
UCCUCAGAGUACCUAUAAACACUUACCCCUUCCUAGAUGGCAUUAAACUCCAUUCUAGAUGUUAGGAAAGUUGUAACAUGCACACUCACUCAGCCGAUCAGGAAUCAUUG	0.273
CGCACUUUUAAGGUUUGGUUGUUUUUUAUAUAUAUAUGUGUAUAGUUACCAACUUAAAAAUAAAAAAUCCGAACAACAUACUUGAAGAAUGUAAUACUCAAACUCUCAGU	0.289
AAGCCUAAGAAUCUUUAGAGAAGUAUACAUAAGUUUAGGAUAAAAUAAUGGGAUUUUCUUUUCUUUUCUCUGGUAAUAUUGACUUGUAUAUUUUAAGAAAUAACAGAAAG	0.751
AUUCUGGUGGGGUGUGUUCCAACUGCCCCCAACUUUGUGGAUGUCUUCCUUGGAGGGGGGAGCCAUAUUUUAUUCUUUUAUUGUCAGUAUCUGUAUCUCUCUCUCUUUUU	0.625
UCACUUGUACUGUAAUAGUGUAUAUAACUUAGUUGGUAUUUCACUAUUUAAUUUUUAAGAAGCCUAUUUUACUAGUGUUUUGUAUGAAGAAAAAUACUGCAGAAGUUAAA	0.698
CUCGUUGUCUUUUCGCUUGAAAUUUUUGAUCUUGUCCUGAAGACUAGCUGCUGCUAAAACAAUGCUAGCCUAAAGAUACAGGAGUCUCUGACAAAAUGACUUUCAUGUUA	0.429
AAACCCUUUCCCCUCUCAAGCCAGGAGUCUCAUCUGCUACAUUUUUUUUAACCACCUCUGAUUUCCAACUUAGUGAUGUGGUAAUGAAAUUCGUUUGUCUUCAAUAUAGU	1.48
GAUUUUGAAUUCCAGAUUUCUUUAUAGGAGAUGUAUAAAAAGGAGUUUAUAGCAUACAAAAAUUAUACUGCUCUUCCCAGUAAGGGACUAAAAGGACAUUUGAAAUCUUU	0.904
UAAGUGAUACAAACAUGCCGAAUUACCUGUAAAGAAUGCAUUUAAAGCUAUUCUAAAUGGGUUUUUAUUUGUAAGACAUUAUUUACUAGGAAGCUGGUGAUAUUAAUGCU	0.495

Set 5
Target: Histone acetyltransferase KAT6A, winged helix 2, GST fusion (KAT6A, Homo sapiens, UniProt Q92794, residues 85-181)
Technique: protein binding microarray
Form: double-stranded DNA, one strand shown
Matrix: in vitro
Tested at: not given
Setting: 8-mer, flanks averaged, mean of 2 arrays, mostly near background
Reference: not given
Reading: higher = stronger binding
Construct (chain): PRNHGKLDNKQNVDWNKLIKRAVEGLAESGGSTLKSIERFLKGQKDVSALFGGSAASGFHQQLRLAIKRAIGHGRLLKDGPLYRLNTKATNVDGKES
Sequence	E-score
CTTCATCA	-0.0282
GCCACTGA	0.111
ACAAATGT	-0.01
GTAGTGAC	-0.0528
CTCAGAGC	0.0929
ACGCCTAT	-0.0905
AAGATTGC	0.125
CATCCGGG	0.253
ACGCCATC	-0.113
CTGGCAAA	0.0394
ACATTTTC	-0.0522
CGGTTCAC	-0.0664
ATTAAAGC	0.13
CTCGTTTA	0.059
CCTCGCAA	0.0962
GATGTTCC	0.0198
AAAACCCA	0.122
CGCGATTC	0.248
AAGGCCCA	-0.0807
GGACTGAA	0.0971
CCTGCTTC	0.196
AACACATA	0.063
